Experimental data gathered from unrelated publications.
Protocols differ between the studies behind these lines. “And” joins repeats or separate records; there may be more than shown. ± gives the spread as reported.
B1: colicin E1 T-domain (41–120); sequence looked up; chain GGSKSESSAAIHATAKWSTAQLKKTQAEQAARAKAAAEAQAKAKANRDALTQRLKDIVNEALRHNASRTPSATELAHANN

| Substance | tested on | assay | system | conditions | endpoint | value |
| --- | --- | --- | --- | --- | --- | --- |
| COc1cccc2c1C(=O)c1c(O)c3c(c(O)c1C2=O)C[C@@](O)(C(=O)CO)C[C@@H]3O[C@H]1C[C@H](NC(=O)[C@@H]2CCCN2C(=O)CNC(=O)[C@H](CC(C)C)NC(=O)[C@H](C)NC(=O)CP(=O)(O)O)[C@H](O)[C@H](C)O1 |  |  | mouse, E0771 tumour-bearing, liver | intravenous, 92 µmol/kg | Tmax | 5 min |
| CC(=O)N[C@@H](CCCNC(=N)N)C(=O)N[C@@H](CCCNC(=N)N)C(=O)N[C@@H](Cc1ccc2ccccc2c1)C(=O)N[C@H]1CSSC[C@@H](C(=O)N[C@@H](CCCNC(=N)N)C(N)=O)NC(=O)[C@H](CCCNC(N)=O)NC(=O)[C@H](CCCNC(=N)N)NC(=O)[C@H](Cc2ccc(O)cc2)NC(=O)[C@@H]2CCCN2C(=O)[C@@H](CCCCNC(=O)CCCNC(=O)[C@H](CCCCNC(=O)CCCCCN2C(=CC=CC=CC3=[N+](CCCCS(=O)(=O)O)c4ccc(S(=O)(=O)[O-])cc4C3(C)C)C(C)(C)c3cc(S(=O)(=O)O)ccc32)NC(=O)CN(CCN(CC(=O)O)CC(=O)O)CCN(CC(=O)O)CC(=O)O)NC(=O)[C@H](CCCNC(=N)N)NC(=O)[C@H](CCCNC(N)=O)NC(=O)[C@H](Cc2ccc(O)cc2)NC1=O (single isomer, unassigned) [indium-111 labelled] |  | 111In gamma counting | Balb/c nude mouse, tumour-bearing | intravenous, 50 µg, 24 h | tumour to muscle ratio | 5.95 ± 0.39 |
| B1 (colicin E1 T-domain) |  | far-UV CD | peptide, 50 mM sodium phosphate |  | helical content | 29 ± 2% |
| CCN1C(=CC=CC=CC2=[N+](CCCCCC(=O)NCCCC[C@H](NC(=O)CN3CCN(CC(=O)O)CCN(CC(=O)O)CCN(CC(=O)O)CC3)C(=O)NCC(=O)NCC(=O)N[C@@H](Cc3ccc(O)cc3)C(=O)NCC(=O)N[C@H]3CSSC[C@@H]4NC(=O)CNC(=O)[C@H](C)NC(=O)[C@H](CC(C)C)NC(=O)[C@@H]5CSSC[C@@H](C(=O)NCC(N)=O)NC(=O)[C@H](Cc6ccccc6)NC(=O)CNC(=O)[C@H](CC(N)=O)NC(=O)[C@@H]6CCCN6C(=O)CNC(=O)[C@H](CSSC[C@H](NC(=O)[C@H](CO)NC(=O)[C@H]([C@@H](C)O)NC(=O)[C@@H]6CCCN6C(=O)[C@H](C)NC(=O)[C@H](Cc6c[nH]c7ccccc67)NC(=O)[C@H](CC(=O)O)NC(=O)CNC(=O)[C@H](CCCNC(=N)N)NC(=O)CNC(=O)[C@H](CCC(N)=O)NC(=O)[C@@H]6CCCN6C3=O)C(=O)N[C@@H](CO)C(=O)N[C@@H](CCC(N)=O)C(=O)N[C@@H](CC(=O)O)C(=O)N[C@@H](CO)C(=O)N[C@@H](CC(=O)O)C(=O)N5)NC(=O)[C@H](C(C)C)NC4=O)c3ccc4c(S(=O)(=O)[O-])cc(S(=O)(=O)O)cc4c3C2(C)C)C(C)(C)c2c1ccc1c(S(=O)(=O)O)cc(S(=O)(=O)O)cc21 (single isomer, unassigned) [copper-64 labelled] |  | microPET | female athymic nude mouse, U-87 MG xenograft, tumour | intravenous, 100 µCi, 1 h | tumour uptake | 4.27 ± 0.46 %ID/g |
| CC(=O)N(O)CCCCCNC(=O)CCC(=O)N(O)CCCCCNC(=O)CCC(=O)N(O)CCCCCNC(=S)Nc1ccc(NC(=S)NCCOCCOCCOCCOCCC(=O)N[C@@H](CCC(=O)NCCOCCOCCOCCOCCC(=O)NCCCC[C@@H]2NC(=O)[C@@H](Cc3ccccc3)NC(=O)[C@H](CC(=O)O)NC(=O)CNC(=O)[C@H](CCCNC(=N)N)NC2=O)C(=O)NCCOCCOCCOCCOCCC(=O)NCCCC[C@@H]2NC(=O)[C@@H](Cc3ccccc3)NC(=O)[C@H](CC(=O)O)NC(=O)CNC(=O)[C@H](CCCNC(=N)N)NC2=O)cc1 [zirconium-89 labelled] |  |  | athymic nude mice female tumour-bearing, tumor | intravenous, 100 µCi, 4 h | tissue uptake | 3.94 ± 0.38 %ID/g |
| COc1cccc2c1C(=O)c1c(O)c3c(c(O)c1C2=O)C[C@@](O)(C(=O)CO)C[C@@H]3O[C@H]1C[C@H](NC(=O)[C@H](CC(C)C)NC(=O)[C@H](C)NC(=O)[C@H](CC(C)C)NC(=O)CCNC(=O)CCC(=O)O)[C@H](O)[C@H](C)O1 |  |  | mouse, E0771 tumour-bearing, heart | intravenous, 92 µmol/kg | AUC | 15.1 µM·h |
| CSCC[C@H](NC(=O)[C@H](CC(C)C)NC(=O)[C@H](Cc1cnc[nH]1)NC(=O)CNC(=O)[C@@H](NC(=O)[C@H](C)NC(=O)[C@H](Cc1c[nH]c2ccccc12)NC(=O)[C@H](CCC(N)=O)NC(=O)CCCCCCCNC(=O)CN1CCN(CC(=O)O)CCN(CC(=O)O)CCN(CC(=O)O)CC1)C(C)C)C(N)=O |  |  | ICR SCID mouse (PC-3 tumour), urine and bladder contents | intravenous, 185 kBq, 4 h | excreted dose | 78.3 ± 4.22% |
| Cc1ccccc1NC(=O)Nc1ccc(CC(=O)N[C@@H](CCCCNC(=O)/C=C/c2cccnc2)C(=O)N[C@@H](CCCC(=O)O)C(=O)NC2(C(=O)NCCOCCOCCOCCOCC(=O)N[C@@H](CCCCNC(=S)Nc3ccc(C[C@H]4CN(CC(=O)O)CCN(CC(=O)O)CCN4CC(=O)O)cc3)C(N)=O)CCCCC2)cc1 [fluorine-18 labelled] |  |  | female C57BL/6 mice, B16-F10 tumour, kidney | intravenous, 2 h | tissue uptake | 5.9 ± 0.5 %ID/g |
| peginesatide |  | ELISA | healthy adults, plasma | intravenous bolus, 0.1 mg/kg | Cmax | 3330 ng/mL |
| CC(C)C[C@@H]1NC(=O)[C@@H]2CSSC[C@@H](C(=O)NCC(N)=O)NC(=O)[C@H](Cc3ccccc3)NC(=O)CNC(=O)[C@H](CC(N)=O)NC(=O)[C@@H]3CCCN3C(=O)CNC(=O)[C@@H]3CSSC[C@H](NC(=O)[C@H]([C@@H](C)O)NC(=O)[C@H](CC(C)C)NC(=O)[C@@H]4CCCN4C(=O)[C@@H]4CCCN4C(=O)[C@H](CC(N)=O)NC(=O)[C@H](CC(=O)O)NC(=O)CNC(=O)[C@H](CCCNC(=N)N)NC(=O)[C@@H]4CCCN4C(=O)[C@H](CCCNC(=N)N)NC(=O)[C@@H]4CCCN4C(=O)[C@@H](NC(=O)CNC(=O)CN4CCN(CC(=O)O)CCN(CC(=O)O)CCN(CC(=O)O)CC4)CSSC[C@H](NC(=O)CNC(=O)[C@H](C)NC1=O)C(=O)N[C@@H](C(C)C)C(=O)N3)C(=O)N[C@@H](CO)C(=O)N[C@@H](CCC(N)=O)C(=O)N[C@@H](CC(=O)O)C(=O)N[C@@H](CO)C(=O)N[C@@H](CC(=O)O)C(=O)N2 [copper-64 labelled] |  | PET/CT | transgenic mouse lung tumour, lung tumour | intravenous, 60 min | tumour uptake | 1.66 %ID/g and 2.03 %ID/g and 1.39 %ID/g and 1.65 %ID/g and 2.12 %ID/g |
| N=C(N)NCCC[C@@H]1NC(=O)[C@H](CCCCNC(=O)CNC(=O)CNC(=O)CNC(=O)CC[C@H](NC(=O)CCOCCOCCOCCOCCNC(=O)c2ccc(NN)nc2)C(=O)NCC(=O)NCC(=O)NCC(=O)NCCCC[C@@H]2NC(=O)[C@@H](Cc3ccccc3)NC(=O)[C@H](CC(=O)O)NC(=O)CNC(=O)[C@H](CCCNC(=N)N)NC2=O)NC(=O)[C@@H](Cc2ccccc2)NC(=O)[C@H](CC(=O)O)NC(=O)CNC1=O [technetium-99m labelled] |  | γ-counting | female athymic nude mice, U-87 MG xenograft, intestine | intravenous, 1 h | tissue uptake | 6.17 ± 1.55 %ID/g |
| melittin |  | CD titration | POPC 50% POPG 50% vesicles | pH 7.0, 25 °C | free energy of partitioning | -7.5 kcal/mol |
| N=C(N)NCCC[C@@H]1NC(=O)[C@H](CCCCNC(=O)[C@H](CC(=O)O)NC(=O)[C@H](CC(=O)O)NC(=O)[C@H](CC(=O)O)NC(=O)CC[C@H](NC(=O)CCOCCOCCOCCOCCNC(=O)c2ccc(NN)nc2)C(=O)N[C@@H](CC(=O)O)C(=O)N[C@@H](CC(=O)O)C(=O)N[C@@H](CC(=O)O)C(=O)NCCCC[C@@H]2NC(=O)[C@@H](Cc3ccccc3)NC(=O)[C@H](CC(=O)O)NC(=O)CNC(=O)[C@H](CCCNC(=N)N)NC2=O)NC(=O)[C@@H](Cc2ccccc2)NC(=O)[C@H](CC(=O)O)NC(=O)CNC1=O [technetium-99m labelled] |  | γ-counting | female athymic nude mice, U-87 MG xenograft, brain | intravenous, 2 h | tissue uptake | 0.11 ± 0.01 %ID/g |
| CN[C@@](C)(C[18F])C(=O)O | A549 tumour model |  | host not given, muscle | 1 h, tumour-bearing | tracer uptake | 1 %ID/g |

Excerpt of the above:
| Substance | tested on | assay | system | conditions | endpoint | value |
| --- | --- | --- | --- | --- | --- | --- |
| CCN1C(=CC=CC=CC2=[N+](CCCCCC(=O)NCCCC[C@H](NC(=O)CN3CCN(CC(=O)O)CCN(CC(=O)O)CCN(CC(=O)O)CC3)C(=O)NCC(=O)NCC(=O)N[C@@H](Cc3ccc(O)cc3)C(=O)NCC(=O)N[C@H]3CSSC[C@@H]4NC(=O)CNC(=O)[C@H](C)NC(=O)[C@H](CC(C)C)NC(=O)[C@@H]5CSSC[C@@H](C(=O)NCC(N)=O)NC(=O)[C@H](Cc6ccccc6)NC(=O)CNC(=O)[C@H](CC(N)=O)NC(=O)[C@@H]6CCCN6C(=O)CNC(=O)[C@H](CSSC[C@H](NC(=O)[C@H](CO)NC(=O)[C@H]([C@@H](C)O)NC(=O)[C@@H]6CCCN6C(=O)[C@H](C)NC(=O)[C@H](Cc6c[nH]c7ccccc67)NC(=O)[C@H](CC(=O)O)NC(=O)CNC(=O)[C@H](CCCNC(=N)N)NC(=O)CNC(=O)[C@H](CCC(N)=O)NC(=O)[C@@H]6CCCN6C3=O)C(=O)N[C@@H](CO)C(=O)N[C@@H](CCC(N)=O)C(=O)N[C@@H](CC(=O)O)C(=O)N[C@@H](CO)C(=O)N[C@@H](CC(=O)O)C(=O)N5)NC(=O)[C@H](C(C)C)NC4=O)c3ccc4c(S(=O)(=O)[O-])cc(S(=O)(=O)O)cc4c3C2(C)C)C(C)(C)c2c1ccc1c(S(=O)(=O)O)cc(S(=O)(=O)O)cc21 (single isomer, unassigned) [copper-64 labelled] |  | microPET | female athymic nude mouse, U-87 MG xenograft, tumour | intravenous, 100 µCi, 1 h | tumour uptake | 4.27 ± 0.46 %ID/g |
| CC(=O)N(O)CCCCCNC(=O)CCC(=O)N(O)CCCCCNC(=O)CCC(=O)N(O)CCCCCNC(=S)Nc1ccc(NC(=S)NCCOCCOCCOCCOCCC(=O)N[C@@H](CCC(=O)NCCOCCOCCOCCOCCC(=O)NCCCC[C@@H]2NC(=O)[C@@H](Cc3ccccc3)NC(=O)[C@H](CC(=O)O)NC(=O)CNC(=O)[C@H](CCCNC(=N)N)NC2=O)C(=O)NCCOCCOCCOCCOCCC(=O)NCCCC[C@@H]2NC(=O)[C@@H](Cc3ccccc3)NC(=O)[C@H](CC(=O)O)NC(=O)CNC(=O)[C@H](CCCNC(=N)N)NC2=O)cc1 [zirconium-89 labelled] |  |  | athymic nude mice female tumour-bearing, tumor | intravenous, 100 µCi, 4 h | tissue uptake | 3.94 ± 0.38 %ID/g |
